Measurements from different studies.
Every numbered part comes from another study and shows a few of its results, in no order.

Study 1
Target: Transcriptional repressor CTCF (CTCF, Homo sapiens, UniProt P49711, residues 1-727, full length assumed)
Method: protein-binding microarray
Molecule type: double-stranded DNA, one strand shown
Medium: in vitro
Concentration: not given
Setting: k-mer, scored over probes, only values ≥0.25
Reading: higher = stronger binding
Target sequence (chain): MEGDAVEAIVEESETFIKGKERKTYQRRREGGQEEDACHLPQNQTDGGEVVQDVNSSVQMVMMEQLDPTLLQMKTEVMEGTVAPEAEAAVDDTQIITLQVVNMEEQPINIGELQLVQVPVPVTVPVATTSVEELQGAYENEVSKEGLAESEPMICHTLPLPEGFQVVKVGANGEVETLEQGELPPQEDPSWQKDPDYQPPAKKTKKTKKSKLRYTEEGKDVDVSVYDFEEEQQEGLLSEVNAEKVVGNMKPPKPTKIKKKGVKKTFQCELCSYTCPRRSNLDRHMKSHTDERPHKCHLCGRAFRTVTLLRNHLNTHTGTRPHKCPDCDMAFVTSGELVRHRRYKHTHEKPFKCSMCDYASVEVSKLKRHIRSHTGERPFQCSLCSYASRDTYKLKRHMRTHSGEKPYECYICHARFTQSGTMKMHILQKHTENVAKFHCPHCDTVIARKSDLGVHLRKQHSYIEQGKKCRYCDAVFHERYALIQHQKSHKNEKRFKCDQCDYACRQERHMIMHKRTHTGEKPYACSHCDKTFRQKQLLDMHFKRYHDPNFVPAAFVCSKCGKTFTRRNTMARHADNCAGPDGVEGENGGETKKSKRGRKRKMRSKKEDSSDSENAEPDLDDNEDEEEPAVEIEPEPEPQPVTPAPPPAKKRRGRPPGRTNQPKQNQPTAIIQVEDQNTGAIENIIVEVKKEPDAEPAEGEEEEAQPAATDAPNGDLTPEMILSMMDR
For `AATGCAAT`, the E-score was 0.268.
`ACTGGCGC` gave an E-score of 0.263.
With `ACCCCGCC` the E-score was 0.347.
`ATATTCAG` has an E-score of 0.258.
With `AGCGCGCA` the E-score was 0.308.
`GTAATAAA` has an E-score of 0.307.
The E-score of `AAAAAAAA` is reported as 0.302.
With `ATACTACA` the E-score was 0.26.
`CTACAACC` gave an E-score of 0.269.
For `ACCACTAG`, the E-score was 0.389.
`ATACTTAA` gave an E-score of 0.26.
With `TAACAGTA` the E-score was 0.297.
`ATCGTACA` gave an E-score of 0.253.
For `CATCATAC`, the E-score was 0.269.
With `AGTACAAA` the E-score was 0.271.
`TAACATAA` gave an E-score of 0.278.

Study 2
Target: Interferon regulatory factor 5, full length, phosphomimetic (IRF5, Homo sapiens, UniProt Q13568-2, residues 1-514, K96S/S451D/S453D/S456D/S462D)
Method: protein-binding microarray
Molecule type: double-stranded DNA, one strand shown
Medium: in vitro
Concentration: 250 nM
Setting: 60-bp whole probe
With: salmon DNA 0.4 mg/ml
Baseline: random background probes
Reading: higher = stronger binding
Shared flanks, not repeated: GCCTAGCAC … GTCTTGATTCGCTTGACGCTGCTG
With `ATGGAAATGCACCCCACGCTGTGCTAG` the log fluorescence was -0.444 z-score.
`TTTGTTTCCATTTTCTGAATGTGCTAG` has a log fluorescence of 2.94 z-score.
`TGGCAGCATTCTTGGAAATCGTGCTAG` gave a log fluorescence of -0.417 z-score.
With `CTAGGTCTCCTTCTCCTTTAGTGCTAG` the log fluorescence was -0.102 z-score.
With `GACGGTTTCGACGTTCGGGACGTGCTA` the log fluorescence was 4.89 z-score.
`GTCTCTGTTCTTTTCAGTCCGTGCTAG` gave a log fluorescence of 1.12 z-score.
`TTAGGACTGCTACTGCTTTTGTGCTAG` has a log fluorescence of -0.012 z-score.
With `TCACCTCTCTCTATTCAACTGTGCTAG` the log fluorescence was 0.758 z-score.
`AACGGTTCCCTTTTCCTGACGTGCTAG` gave a log fluorescence of 0.282 z-score.
`TTAGATTCCAGTTTTGATTAGTGCTAG` has a log fluorescence of 1.53 z-score.
The log fluorescence of `ATTTTTTTATCAATCATTTTGTGCTAG` is reported as 1.51 z-score.
The log fluorescence of `TTAGGTTTGGACTTTCGGTTAGTGCTA` is reported as 8.72 z-score.
For `TTAGATCACAGTTTCGATTAGTGCTAG`, the log fluorescence was 9.22 z-score.
The log fluorescence of `TTAAATTTCGGGACTGGATTAGTGCTA` is reported as 3.8 z-score.
The log fluorescence of `GACGGTTTCGGTATCTGGACGTGCTAG` is reported as 9.67 z-score.
For `CTTTAACTCATTTTCATTTTGTGCTAG`, the log fluorescence was 2.55 z-score.
For `ATTGATAGTTTCACAATGCCGTGCTAG`, the log fluorescence was 4.2 z-score.
`TTAGTTTTCGACACTGGGTTAGTGCTA` has a log fluorescence of 3.4 z-score.
`GGCGGTCTCCTTATCCTGACGTGCTAG` gave a log fluorescence of -0.486 z-score.
`TTTGATTTCGGGTATCGATTAGTGCTA` has a log fluorescence of 8.66 z-score.
`GACGGTATCGACACGGGGGACGTGCTA` gave a log fluorescence of 2.64 z-score.
For `TCATATCACTATTCTAGGACTGTGCTA`, the log fluorescence was 2.64 z-score.
For `TTAGAACTGGGGACGGGATTAGTGCTA`, the log fluorescence was -0.0599 z-score.
For `TCATGTTTGTCCCTATTACTGTGCTAG`, the log fluorescence was 0.692 z-score.
The log fluorescence of `CACGGTATCGGGTATCGGGACGTGCTA` is reported as 2.86 z-score.

Study 3
Target: Histone acetyltransferase KAT6A, winged helix 1, GST fusion (KAT6A, Homo sapiens, UniProt Q92794, residues 1-85)
Method: protein binding microarray
Molecule type: double-stranded DNA, one strand shown
Medium: in vitro
Concentration: not given
Setting: 8-mer, flanks averaged, mean of 2 arrays, mostly near background
Baseline: not given
Reading: higher = stronger binding
Construct (chain): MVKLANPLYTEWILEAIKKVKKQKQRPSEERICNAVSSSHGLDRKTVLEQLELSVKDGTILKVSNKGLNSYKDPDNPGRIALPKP
`CTCACTTA` has an E-score of -0.184.
`GAGAGATA` gave an E-score of -0.15.
With `ATATCTGC` the E-score was -0.0832.
`CGCTCTCC` gave an E-score of 0.231.
For `CGGCTTAC`, the E-score was 0.266.
With `AAACCGTC` the E-score was 0.185.
`CGAACTCC` gave an E-score of 0.0783.
For `CGCTTCAC`, the E-score was 0.162.
`GTTGAGGA` gave an E-score of -0.129.
`CGGCCCCA` gave an E-score of 0.219.
For `AGGTGCAT`, the E-score was -0.247.
With `GGGGCTGA` the E-score was -0.00114.
The E-score of `ACGCCCGG` is reported as 0.282.
The E-score of `CATCGGTC` is reported as 0.117.
For `AACGGCAT`, the E-score was 0.352.
With `CGAATACC` the E-score was 0.0466.
The E-score of `TCTTTACA` is reported as -0.22.
The E-score of `AGCAAAGG` is reported as -0.135.
With `CGTATCGC` the E-score was 0.274.
`CCCCCGAC` has an E-score of 0.229.
For `ACCTTTCC`, the E-score was 0.00063.
With `CAGTATTA` the E-score was -0.00234.
For `ACGTGGTC`, the E-score was -0.184.

Study 4
Target: RNA binding protein fox-1 homolog 2, RRM domain, GST-SBP tag (RBFOX2, Homo sapiens, UniProt O43251-10, residues 100-194)
Method: RNA Bind-n-Seq
Molecule type: RNA
Medium: in vitro
Concentration: 365 nM
Setting: natural RNA segment, single round, ends assumed
Baseline: no-protein control
Reading: higher = stronger binding
Shared flanks, not repeated: GGGAGUUCUACAGUCCGACGAUC … UGGAAUUCUCGGGUGCCAA
Target sequence (chain): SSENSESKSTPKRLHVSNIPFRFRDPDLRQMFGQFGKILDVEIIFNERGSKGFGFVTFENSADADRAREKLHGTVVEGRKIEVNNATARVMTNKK
`AUUAACAUGCUUCUUUUAUUCUUCAAAGCAAUUCUUUACAACCUGACCAUGUAAAAGAUCUGUUACCCCUAGAGUGUUGAGCCUGCUGAUUUCAUUUAGGACAAAUGUGC`: “RBNS enrichment (R)” 0.42.
`CACAGUGCGUUCCAUAUUGUGAUAAGGUAACGUGAGGUUUUUUUGUUUUGUUUUGUUUUCUUUUUUUUUUUUCUGAGCUAGCCUUUAGAACACUGUUGUGGUAUGUAUGC` — result for “RBNS enrichment (R)”: 5.03.
`GCAGCCUAAGCUGAUUUGGAUCUGGGUUUCUCCUCCAGGUAGGGUUGUUUUGUUUCCUUCGCCCUUUUCUUCUCUGUGUAAAGGCGAUUCCCUAGACCCAGGAUGGACCC` — result for “RBNS enrichment (R)”: 1.29.
For `AGGAGGAGAUGAGAGACUCUGGCAUGAUCUUUUUUUUGUCCCACUUGGUGGGGCCAGGGUCCUCUCCCCUGCCCAGGAAUGUGCAAGGCCAGGGCAUGGGGGCAAAUAUG`, “RBNS enrichment (R)” read 4.94.
For `ACUAGAUGUUUUUCUGAAGAUCAAUUAGACAUUUUGAAAAUGAUUUAAAGUGUUUUCCUUAAUGUUCUCUGAAAACAAGUUUCUUUUGUAGUUUUAACCAAAAAAGUGCC`, “RBNS enrichment (R)” read 0.348.
Under “RBNS enrichment (R)”, `UACAUGGGAGAGUCCUGCCUUACUUCUCCUGGACUGGCUUCCUCUUUGAGAAAAUGCACAAAGCUCUGGGAGAAAGCAGCUACCAAGACUAUCUGGAACUGUGUCUGUCA` is recorded as 0.623.
For `AUUAUAGGAGUUGAUUUUUACUUUGCAAAGUGGCUCGGUCCUCAUGAGCAUCUGCAUGUUGACUCUUCAGUUAAGAAAAUUGUUGUUCAUUUAGGGAGGUGGAUAUUCUG`, “RBNS enrichment (R)” read 3.02.
Under “RBNS enrichment (R)”, `ACCCAUCCAGAACCACGUGCACGAGUUUUUACCUAGCUGGUUGUUUCCGAGGACCAGGCACUCGAUCCUGUCUCUGUGAGAAUGUAUACUUUAUGCUCUCUGAAAUAUAU` is recorded as 8.1.
`AUUUCAACAUAUGGCUUCAGAACAUGAAGAUGUUCUUGUAUGGAUUAUAGUAUCUAGUAUUCAAAAAUGCCUGCAUCUCUUCUCUUAUUUAUUGUAAGUUUUUAAAUGUA`: “RBNS enrichment (R)” 0.324.
Under “RBNS enrichment (R)”, `GUCUUUCUUGGGCUUUUAGUUAGCUGAUGAAUGAAUACAUUAGACACUUCUGGGUUUUAGUUGGGAUUUUACAUAGCUUGCAUUUUAGUUCUUUGGUUCUUUGCUGUUUC` is recorded as 0.928.
For `CAGAAAAUAAGCCAUUCCUCAUAUCAGUGGGAUAAACUCCUUGUACCUCUUGCUGUGUUUGGAUCCCUUGGCCUUGUUUUGUAGAGGUGAAGUACCCCUGGAUCAUGUCC`, “RBNS enrichment (R)” read 1.28.
Under “RBNS enrichment (R)”, `CCUCAGUUUUCCAUCUGUUUUUGAUAAGAAUAAGAAAGGGAGUGAGUGUGAAGAUGGUGGUUAGCAGUUUCACUAAGACUGAUAUUUUAGGCCUCUUGUUCACAUCAAAA` is recorded as 0.433.

Study 5
Target: Sal-like protein 4, full length isoform B (SALL4, Homo sapiens, UniProt Q9UJQ4-2, residues 1-616)
Method: universal PBM
Molecule type: double-stranded DNA, one strand shown
Medium: in vitro
Concentration: not given
Setting: 8-mer, flanks averaged, mean of replicates
Reading: higher = stronger binding
For `CCAGATAG`, the E-score was -0.0663.
`CACTGACA` gave an E-score of -0.0318.
With `AGTACGCG` the E-score was -0.00262.
With `TAGCACCA` the E-score was 0.0089.
`GGTGGAAA` has an E-score of -0.139.
The E-score of `AGTGCTCA` is reported as -0.106.
`CTCTCAGC` has an E-score of -0.262.
`GCGTTTGA` gave an E-score of -0.059.
With `AGATCGAA` the E-score was 0.167.
`ATTGCACC` gave an E-score of 0.099.
`ACCCGCCC` has an E-score of -0.188.
For `GACAAGGA`, the E-score was 0.148.
For `CGCGGCAC`, the E-score was -0.264.
`GCCTCCGC` has an E-score of -0.292.
The E-score of `CTCCTAGA` is reported as -0.0772.
For `GACCGACC`, the E-score was -0.293.
The E-score of `ACCTCTGA` is reported as -0.118.
For `GGAAATTA`, the E-score was 0.29.
The E-score of `CTAGGACA` is reported as 0.0857.
`ACCACAAA` gave an E-score of 0.102.
`AACGGCCC` gave an E-score of -0.336.
With `ACCGGGGC` the E-score was -0.395.
`GTCGCGAA` gave an E-score of -0.117.
The E-score of `AACTCACT` is reported as -0.0413.
With `GCGTAGCC` the E-score was -0.272.

Mixed results
For `PhoQ, residues 284 288 289 292 302 303 GTAMQF`, the fold induction was 4.23 (PhoP, residues 12 14 15 18 19 QYCSL (Escherichia coli, UniProt P23836); Sort-seq, item: YFP reporter; E. coli; PhoQ-PhoP variant library, with: 10 µM Mg2+; baseline: high Mg2+ state, higher = stronger signaling).

Excerpt of the above (study 5):
For `GACCGACC`, the E-score was -0.293.
For `CCAGATAG`, the E-score was -0.0663.
`ATTGCACC` gave an E-score of 0.099.
With `GCGTAGCC` the E-score was -0.272.
`CACTGACA` gave an E-score of -0.0318.
For `GACAAGGA`, the E-score was 0.148.
`CTCTCAGC` has an E-score of -0.262.
With `AGTACGCG` the E-score was -0.00262.
The E-score of `ACCTCTGA` is reported as -0.118.
`ACCCGCCC` has an E-score of -0.188.
With `ACCGGGGC` the E-score was -0.395.
